Published values from different studies.
Compare with care: the assays were run in different laboratories. ± gives the spread as reported.
Medium: plasma

CCn1nc(C2CC2)cc1Nc1nc(C(=O)NCCCCCc2cccc3c2CN(C2CCC(=O)NC2=O)C3=O)nc2[nH]c3cc(-c4c(C)noc4C)c(OC)cc3c12 (centres unmarked)  plasma concentration (female SCID C.B-17 mouse; intravenous, 5 mg/kg single, 1 h): 422 ng/mL
O=C(OC(C(F)(F)F)C(F)(F)F)N1CCN(Cc2ccc(C(F)(F)F)cc2N2CCCC2)CC1  plasma concentration (wild-type mouse; oral in chow, 350 mg/kg chow, 7 days, P25): 394 ± 49 ng/mL
CC1(C)Oc2cc3oc(=O)ccc3cc2C[C@@H]1O  plasma Amy activity (male CD-1 mouse; oral gavage, 80 mg/kg daily, 4 weeks): 773 ± 38.3 U/L
CNC(=O)c1cc2c(Oc3ccc(NC(=O)C4(C(=O)Nc5ccc(F)cc5)CC4)cc3)ccnc2cc1OC  plasma concentration (LC-MS/MS; mouse, Hs746T xenograft; oral, 30 mg/kg single dose, 4 h): 20 µM
O=C(Nc1ccc(C(F)(F)F)cc1)c1cc(Cl)cc2nc(C(F)(F)F)[nH]c12  plasma concentration over IC50 (NOD/SCID mouse; oral, 1 mg/kg, 24 h; reference: IC50 in TOPFlash and MTS): 3 fold
CC(C)(O/N=C(\C(=O)N[C@H]1CN2CC(C(=O)NCCN3C(=O)c4cc(O)c(O)cc4C3=O)=C(C(=O)O)N2C1=O)c1nc(N)sc1Cl)C(=O)O  plasma concentration (CD-1 mouse; subcutaneous, 50 mg/kg, 6 h): 1430 ng/mL
COc1cccc2c1C(=O)c1c(O)c3c(c(O)c1C2=O)C[C@@](O)(C(C)=O)C[C@@H]3O[C@H]1C[C@H](N)[C@H](O)[C@H](C)O1  plasma concentration (item: daunorubicin; BALB/c mouse; intravenous, 10 mg/kg, any time point; reference: micellar daunorubicin): < 10%
CCCCCCCCCCCCCCCC(=O)N[C@@H](CCCNC(=N)N)C(=O)N[C@@H](C)C(=O)N[C@@H](CC(C)C)C(=O)N[C@@H](CCC(N)=O)C(=O)N[C@@H](CCCCN)C(=O)N[C@@H](CCCNC(=N)N)C(=O)N[C@@H](CC(C)C)C(=O)N[C@@H](CCCNC(=N)N)C(=O)N[C@@H](CCC(=O)O)C(=O)N1CCC[C@H]1C(=O)N[C@@H](CCC(=O)O)C(=O)N[C@@H](CCCCN)C(=O)N[C@@H](CCC(N)=O)C(=O)N1CCC[C@H]1C(=O)N[C@@H](CCCCN)C(=O)N[C@@H](CC(C)C)C(=O)N[C@@H](CCC(N)=O)C(=O)N[C@@H](CCCNC(=N)N)C(=O)N[C@@H](C)C(=O)N[C@@H](CCC(N)=O)C(=O)N[C@@H](C)C(N)=O  plasma concentration (mouse, CD-1; subcutaneous, 10 mg/kg, 15 min to 6 h): 1.6 to 4.3 µM

Repeated from above:
CCCCCCCCCCCCCCCC(=O)N[C@@H](CCCNC(=N)N)C(=O)N[C@@H](C)C(=O)N[C@@H](CC(C)C)C(=O)N[C@@H](CCC(N)=O)C(=O)N[C@@H](CCCCN)C(=O)N[C@@H](CCCNC(=N)N)C(=O)N[C@@H](CC(C)C)C(=O)N[C@@H](CCCNC(=N)N)C(=O)N[C@@H](CCC(=O)O)C(=O)N1CCC[C@H]1C(=O)N[C@@H](CCC(=O)O)C(=O)N[C@@H](CCCCN)C(=O)N[C@@H](CCC(N)=O)C(=O)N1CCC[C@H]1C(=O)N[C@@H](CCCCN)C(=O)N[C@@H](CC(C)C)C(=O)N[C@@H](CCC(N)=O)C(=O)N[C@@H](CCCNC(=N)N)C(=O)N[C@@H](C)C(=O)N[C@@H](CCC(N)=O)C(=O)N[C@@H](C)C(N)=O  plasma concentration (mouse, CD-1; subcutaneous, 10 mg/kg, 15 min to 6 h): 1.6 to 4.3 µM
